Assay results gathered from unrelated publications.
Compare with care: the assays were run in different laboratories. ± marks the error that the study gave.

The logK(H2) of CSCCN(CCSC)CCc1ccccn1 is reported as 3.23 (potentiometric or spectrophotometric titration; water, 0.1 M KCl; 25 °C).
COc1ccc2cc(-c3ccc(-c4ccc(C)cn4)nc3)oc2c1: “fluorescence quantum yield” 0.79 (MeOH; together with: quinine bisulfate reference).
The tlast of CC12CC(c3ccc(S(C)(=O)=O)cc3)C3=C4CCC(=O)C=C4CCC3C1CCC2(O)C(F)(F)C(F)(F)F (stereo not drawn) is reported as 48.1 h (item: total radioactivity; human, whole blood; oral, 5 mg).
Under “mean arterial pressure”, CCCC[C@H](NC(=O)[C@H](CC(C)C)N(C)C(=O)CNC(=O)[C@@H](NC(=O)[C@H](Cc1ccccc1)NC(=O)[C@H](CCCCN)NC(=O)[C@@H](N)CC(=O)O)C(C)C)C(N)=O is recorded as -4.6 ± 2.67% (anesthetized Gottingen minipig; subcutaneous, 10 µg/kg; baseline: baseline).
With COc1ccc(S(=O)(=O)N/N=C/c2ccc(C#N)cc2)cc1OC the hydrolysis was about 60% (buffer; concentration not given, time not given, pH 2, 37 °C).
For COC(=O)C(c1ccccc1Cl)N1CCC(SCC(=O)c2cccc(OC)c2)C(=CC(=O)O)C1 (stereo not drawn), the measured concentration was 1.9 ± 0.2 ng/mL (LC-MS/MS; human plasma; 2 ng/mL, after freeze-thaw cycles).
COc1c(Cl)ccc(Cl)c1C(=O)OC[C@H]1OC(O)[C@H](O)[C@@H]1O (stereo partly drawn) gave a dicamba formed of 14.2% (HPLC; water; 28 days).
The AUC(0-t) of O=C(CCc1ccc(CNC(C(=O)O)C2CCCCC2)cn1)NO (stereo not drawn) is reported as 61.5 ng·h/mL (healthy male humans, plasma; oral, 20 mg, single dose, geometric mean).
C=CC(=O)Nc1cc(Nc2nccc(-c3cn(C4CC4)c4ccccc34)n2)c(OC)cc1N(C)CCNC — result for “share of radioactivity”: 2.7% (LC-RAM/HRMS; human male, plasma; oral, 110 mg, 2 h; baseline: total radioactivity).
With CC(O)c1nc(-c2ccc3c(c2)CCC3NC(=O)c2cnn(C)c2)no1 (stereo not drawn) the t1/2 was 95 h (human, plasma; oral, 20 mg aficamten, median).
The half-life of CC1=C(/C=C/C(=O)N2CCN(C(N)=O)CC2)C(C)(C)CCC1 is reported as 1.12 h (male mouse, plasma; oral, 40 mg/kg, single dose).
CC(C)C[C@@H]1NC(=O)[C@@H]2CCCN2C(=O)[C@H](CO)NC(=O)[C@@H](NC(=O)[C@H](Cc2c[nH]cn2)NC(=O)[C@H](CO)NC(=O)[C@H](Cc2ccc(O)cc2)NC(=O)[C@H](CC(=O)O)NC(=O)CNC(=O)CN2CCN(CC(=O)O)CCN(CC(=O)O)CCN(CC(=O)O)CC2)CSSC[C@@H](C(=O)N[C@H](C(=O)N[C@@H](Cc2ccc(O)cc2)C(=O)N2CCC[C@H]2C(=O)N[C@@H](CC(=O)O)C(=O)N2CCC[C@H]2C(=O)N[C@@H](CCC(=O)O)C(=O)NCC(=O)NCC(=O)NCC(N)=O)[C@@H](C)O)NC(=O)[C@H](CCCCN)NC(=O)[C@H](Cc2c[nH]c3ccccc23)NC(=O)[C@H](Cc2c[nH]c3ccccc23)NC(=O)[C@@H]2CCCN2C(=O)[C@H](Cc2ccc(O)cc2)NC(=O)[C@H](Cc2ccc(O)cc2)NC(=O)[C@H](CCCNC(=N)N)NC1=O [gallium-68 labelled] gave an SUVmax of 0.71 ± 0.13 SUV (PET/CT; male NOD-SCID mice, heart; intravenous, 3.7 MBq, 60 min).
CCCC[C@H](NC(C)=O)C(=O)N[C@H]1CC(=O)NCCCC[C@@H](C(=O)N[C@@H](C(=O)N2CCC[C@@H]2C(N)=O)C(C)C)NC(=O)[C@H](Cc2c[nH]c3ccccc23)NC(=O)[C@H](CCCN=C(N)N)NC(=O)[C@@H](Cc2ccc3ccccc3c2)NC(=O)[C@@H]2CCCN2C1=O has a plasma phosphorus of 4.1 mg/dL (healthy dogs, plasma; 2.25 mg/kg per day, day 28, median).
CCOc1c(C(C)(C)O)sc2cnc(Nc3ccc(N4CCC(N5CC6(COC6)C5)CC4)cc3OC)nc12 has a half-life of 7.4 h (male C57BL/6 mouse, plasma; oral, 10 mg/kg).
CCc1cc(Nc2nc(-c3ccc(-n4cnc(C)c4)c(F)c3)cs2)c(C)cc1C: “apparent clearance (CL/F)” 56700 mL/h (human, plasma; oral, 200 mg, day 1, multiple dose, geometric mean).
CCOc1ccc2c(c1)C(C)=CC(C)(C)N2c1cc(OCC)cc2c1NC(C)(C)C=C2C — result for “highest tissue residue”: 112 ng/g (LC-MS/MS; Holstein cattle, subcutaneous fat; oral in feed, 50 mg/kg complete feed ethoxyquin, 42 days).
Under “metabolite peak area”, Cc1ccc(C(=O)N[C@@H](CO)CC(C)C)cc1CO is recorded as 5.88% (LC-MS; Sprague-Dawley rats, pooled sexes, plasma; oral, 100 mg/kg of parent drug, 1 h; baseline: total metabolite peak area).
For COC(=O)C(Cc1c[nH]cn1)NC(=O)C1(C)C(O)CCC2(C)C1CCC1(C)C2CC=C2C3C(C)C(C)CCC3(C)CCC21C (stereo not drawn), “hydrolysis rate constant” read 0.0013 min⁻¹ (Wistar rat colon homogenate; 90 µg/mL, 37 °C).
The AUC(0-t) of Cn1c(=O)oc2ccc(-c3ccc(CC(C#N)NC(=O)C4CNCCCO4)c(F)c3)cc21 (stereo not drawn) is reported as 3290 ng·h/mL (human volunteers, plasma; 40 mg single dose, fasted, geometric mean).
With CCCC(CCC)NC(=O)c1ccc(OC2OC(C(=O)O)C(O)C(O)C2O)c(OC)c1 (stereo not drawn) the peak area was 1.15e+07 cps (LC-MS extracted ion chromatogram; Sprague-Dawley rat, male and female, pooled plasma; oral, 200 mg/kg, 1 h).
[11CH3]c1ccc2nc(C3CCC3)n(-c3ccc4[nH]ncc4c3)c2n1 — result for “absorbed radiation dose”: 14.9 µSv/MBq (standard human adult, small intestine).
CC[C@H](C)[C@@H]1NC(=O)[C@H](Cc2ccccc2)NC(=O)[C@@H](NC(=O)[C@H](CCCNC(=N)N)NC(=O)[C@H](Cc2ccccc2)NC(=O)[C@H](Cc2ccccc2)NC(=O)[C@H](CCCCN)NC(=O)[C@H](CO)NC(=O)[C@H](CC(C)C)NC(=O)[C@H](CCCNC(=N)N)NC(=O)[C@H](CCSC)NC(=O)[C@H](C)N)CCCCNC(=O)NC[C@@H](C(=O)N[C@@H](CCCNC(=N)N)C(=O)N[C@@H](CCCCN)C(=O)N[C@@H](CCCCN)C(=O)O)NC(=O)[C@H](CC(C)C)NC1=O gave a melting temperature of 60.9 °C (circular dichroism; 2.5 mM DPC).
The measured concentration of CNC(=O)N[C@]1(C)CCC[C@@]2(C)C3CC[C@@]4(C)C[C@]3(CCC21)CC4=O (single isomer, unassigned) is reported as 1.38 ± 0.09 ng/mL (rat plasma; 1.5 ng/mL, 8 h, room temperature, short-term stability).
O=C(O)C1CN(Cc2ccc(-c3noc(-c4ccc(OCC[18F])c(C(F)(F)F)c4)n3)cc2)C1 gave a tracer uptake of 0.114 %ID/g (rat, bone; intravenous, 30 min).
O=C(O)CCC(NP(=O)(O)OCCC[C@@H](NC(=O)CC[C@H](NC(=O)CCCCCNC(=O)c1ccc([18F])cc1)C(=O)O)C(=O)O)C(=O)O (stereo partly drawn) gave a tissue uptake of 0.129 ± 0.008 %ID/g (mouse, CWR22Rv1 xenograft, liver; dose not given, 4 h, blocking agent pre-dosed).
For C=CC(=O)Nc1cc(Nc2nccc(-c3cn(C4CC4)c4ccccc34)n2)c(OC)cc1NC, “share of radioactivity” read 2.04% (LC-RAM/HRMS; human male, plasma; oral, 110 mg, 6 h; baseline: total radioactivity).
CCN(CC)c1ccc2c(-c3ccc(S(=O)(=O)NCCNC(=O)CN4CCN(CC(=O)[O-])CCN(CC(=O)O)CCN(CC(=O)[O-])CC4)cc3S(=O)(=O)[O-])c3ccc(=[N+](CC)CC)cc-3oc2c1.[64Cu+2] has a metabolic degradation of over 65% (radio-HPLC; athymic nude mice, feces; 120 min post-injection).
COCCOCCOCCOCCC(=O)NCc1cc(CNC(=O)CCOCCOCCOCCOC)cc(-c2cc3cc4nc(c(-c5ccc(CCC(=O)O)cc5)c5[nH]c(cc6nc(c(OC)c2[nH]3)CC6(C)C)cc5-c2cc(CNC(=O)CCOCCOCCOCCOC)cc(CNC(=O)CCOCCOCCOCCOC)c2)CC4(C)C)c1: “Qy emission FWHM” 25 nm (water with 5% DMF; room temperature).
COc1cc(OC)cc(C2=C3C(C)=C(I)C(/C=C/c4c[nH]c5ccccc45)=[N+]3[B-](F)(F)n3c(/C=C/c4c[nH]c5ccccc45)c(I)c(C)c32)c1 has a Stokes shift of 617 cm⁻¹ (THF).
CC(C)(O)c1ncc([S@](N)(=O)=NC(=O)Nc2c3c(cc4c2CCC4)CCC3)s1 gave a Cmax of 8520 ng/mL (healthy human, fed; oral, 50 mg twice daily, day 14, tablet formulation, geometric mean).

Some of these lines once more:
C=CC(=O)Nc1cc(Nc2nccc(-c3cn(C4CC4)c4ccccc34)n2)c(OC)cc1N(C)CCNC — result for “share of radioactivity”: 2.7% (LC-RAM/HRMS; human male, plasma; oral, 110 mg, 2 h; baseline: total radioactivity).
Under “metabolite peak area”, Cc1ccc(C(=O)N[C@@H](CO)CC(C)C)cc1CO is recorded as 5.88% (LC-MS; Sprague-Dawley rats, pooled sexes, plasma; oral, 100 mg/kg of parent drug, 1 h; baseline: total metabolite peak area).
CC[C@H](C)[C@@H]1NC(=O)[C@H](Cc2ccccc2)NC(=O)[C@@H](NC(=O)[C@H](CCCNC(=N)N)NC(=O)[C@H](Cc2ccccc2)NC(=O)[C@H](Cc2ccccc2)NC(=O)[C@H](CCCCN)NC(=O)[C@H](CO)NC(=O)[C@H](CC(C)C)NC(=O)[C@H](CCCNC(=N)N)NC(=O)[C@H](CCSC)NC(=O)[C@H](C)N)CCCCNC(=O)NC[C@@H](C(=O)N[C@@H](CCCNC(=N)N)C(=O)N[C@@H](CCCCN)C(=O)N[C@@H](CCCCN)C(=O)O)NC(=O)[C@H](CC(C)C)NC1=O gave a melting temperature of 60.9 °C (circular dichroism; 2.5 mM DPC).
